Experimental data collected from several papers.
Parts stem from different laboratories: compare values within a part only. Substitutions count along the parent as printed.

Block 1
Target: CCNB3, cyclin fold, Cln2 fusion (human)
Method: yeast growth competition, sequencing
Medium: yeast
Notes: weak parent motif
Relative to: not given
Direction: higher = stronger binding
Starting sequence: CDC6 docking peptide (human); TLKGRRLVFDNQL
For `TLKGRRLVQDNQL [F9Q]`, “normalised enrichment score” read 0.00315.
`TLFGRRLVFDNQL [K3F]`: “normalised enrichment score” 0.147.
For `TLKGRRLVFVNQL [D10V]`, “normalised enrichment score” read -0.426.
`TLKGRRSVFDNQL [L7S]`: “normalised enrichment score” 0.504.
`TLKGRRLVFDDQL [N11D]`: “normalised enrichment score” 0.368.
`TLKGRMLVFDNQL [R6M]` — result for “normalised enrichment score”: 0.566.
`TLKGRRLVFDNTL [Q12T]` — result for “normalised enrichment score”: 0.265.
`TLKGRRLWFDNQL [V8W]`: “normalised enrichment score” 0.273.

Block 2
Target: Centromere-binding protein 1, full length, His-tagged (CBF1, Saccharomyces cerevisiae, UniProt P17106, residues 1-351)
Sequence of UniProt P17106 (whole entry, looked up): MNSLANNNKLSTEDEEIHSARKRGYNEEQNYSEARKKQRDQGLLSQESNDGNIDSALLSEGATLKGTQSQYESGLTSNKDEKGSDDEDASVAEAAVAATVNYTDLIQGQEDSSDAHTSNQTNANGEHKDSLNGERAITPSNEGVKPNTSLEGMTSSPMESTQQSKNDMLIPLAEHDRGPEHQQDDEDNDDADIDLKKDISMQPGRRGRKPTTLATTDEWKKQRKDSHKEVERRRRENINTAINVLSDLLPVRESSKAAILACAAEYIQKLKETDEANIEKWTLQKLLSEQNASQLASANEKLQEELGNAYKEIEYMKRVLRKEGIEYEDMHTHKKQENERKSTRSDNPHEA
Method: competition protein-binding microarray
Form: double-stranded DNA, one strand shown
Medium: in vitro
Concentration: 2 µM
Notes: whole 60-bp probe, lowest competitor level
Together with: Pho4 competitor, 0.05 µM
Direction: higher = stronger binding
`GACGCGCGACCCGCGCGCGTGCCACTGCAAGCTCTGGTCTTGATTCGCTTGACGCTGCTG` has a fluorescence intensity of 64.7 a.u.
The fluorescence intensity of `CTTCTGTAAATTTGCGTGGTGGGTGGACGCGCCCCGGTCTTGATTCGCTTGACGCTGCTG` is reported as 74 a.u.
With `CATACCCAACCTTTTCACGTGTAATAAGATATTTGTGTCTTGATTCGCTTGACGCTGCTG` the fluorescence intensity was 885 a.u.
`CTTCTGTAAATTTGGAACGTGGGTGGACGCGCCCCGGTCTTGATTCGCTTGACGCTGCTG` has a fluorescence intensity of 66.7 a.u.
`TATGGGCTTATTAAGCTCGTGCTGTAAGATCTTGAAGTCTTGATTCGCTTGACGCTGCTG` has a fluorescence intensity of 116 a.u.
For `AAATTACTAAGTTGTCCCGTGGGTGACGCCGTATGAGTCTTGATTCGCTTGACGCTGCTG`, the fluorescence intensity was 99.7 a.u.
The fluorescence intensity of `GGAAATAACGCTCGAGGCGTGCTTTGTCCTTTTTTGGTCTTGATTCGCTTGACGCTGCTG` is reported as 78.3 a.u.
`CTAACGAAGGTTTTTCACGTGGGTTACAAGCCAAGTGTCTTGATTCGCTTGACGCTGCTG` has a fluorescence intensity of 732 a.u.

Mixed results
ADRA2A: Alpha-2A adrenergic receptor (ADRA2A, Homo sapiens, UniProt P08913)
Sequence of UniProt P08913 (whole entry, looked up): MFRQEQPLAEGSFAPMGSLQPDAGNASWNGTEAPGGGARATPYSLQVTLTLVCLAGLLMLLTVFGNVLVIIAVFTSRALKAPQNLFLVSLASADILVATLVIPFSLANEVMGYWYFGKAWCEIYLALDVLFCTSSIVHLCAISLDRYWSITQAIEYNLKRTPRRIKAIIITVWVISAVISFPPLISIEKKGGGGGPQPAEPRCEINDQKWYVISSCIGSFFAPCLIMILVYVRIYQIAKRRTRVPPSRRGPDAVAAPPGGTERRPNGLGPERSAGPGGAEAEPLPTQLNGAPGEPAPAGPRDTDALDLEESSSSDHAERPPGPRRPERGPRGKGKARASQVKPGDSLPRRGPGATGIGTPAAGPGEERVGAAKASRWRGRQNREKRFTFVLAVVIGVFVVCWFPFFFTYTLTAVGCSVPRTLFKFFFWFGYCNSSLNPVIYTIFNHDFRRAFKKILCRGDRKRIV
`CC1=C(C#N)C(c2ccc3[nH]nc(C)c3c2)C(C#N)=C(C)N1` has an inhibition of -3.48% (ADRA2A; ligand displacement; 10 µM).
The remaining compound of `CCOc1cccc(CN(CCO)Cc2ccccc2C(=O)O)c1` is reported as 96.3% (human, microsomes or S9; 2 µM, 0.5 h).
With `Cc1ccccc1Oc1cc(-n2c(=O)cc(C(F)(F)F)[nH]c2=O)c2ccccc2c1Cl` the inhibition was -15.8% (ADRA2A; ligand displacement; 10 µM).
With `Cc1ccc(S(=O)(=O)c2c(-c3ccccc3)n(C#Cc3ccccc3)c3ccccc23)cc1` the remaining compound was 38.5% (human, microsomes or S9; 2 µM, 0.5 h).
`Nc1nc(NCc2ccccc2)nc(-c2ccccc2CO)n1` has an inhibition of 24.4% (ADRA2A; ligand displacement; 10 µM).

Excerpt of the above (block 1):
For `TLKGRRLVQDNQL [F9Q]`, “normalised enrichment score” read 0.00315.
